Results pooled from the literature.
Protocols differ between the studies behind these lines. ± gives the spread as reported.
Ricin A chain: Ricin, A chain (Ricinus communis, UniProt P02879)
OPRM1: Mu-type opioid receptor (OPRM1, Homo sapiens, UniProt P35372)
Ache: Acetylcholinesterase (Ache, Mus musculus, UniProt P21836)

By UniProt entry, the sequences of proteins in these tests, tags left out. Residues count along the entry.
UniProt P35372, whole entry: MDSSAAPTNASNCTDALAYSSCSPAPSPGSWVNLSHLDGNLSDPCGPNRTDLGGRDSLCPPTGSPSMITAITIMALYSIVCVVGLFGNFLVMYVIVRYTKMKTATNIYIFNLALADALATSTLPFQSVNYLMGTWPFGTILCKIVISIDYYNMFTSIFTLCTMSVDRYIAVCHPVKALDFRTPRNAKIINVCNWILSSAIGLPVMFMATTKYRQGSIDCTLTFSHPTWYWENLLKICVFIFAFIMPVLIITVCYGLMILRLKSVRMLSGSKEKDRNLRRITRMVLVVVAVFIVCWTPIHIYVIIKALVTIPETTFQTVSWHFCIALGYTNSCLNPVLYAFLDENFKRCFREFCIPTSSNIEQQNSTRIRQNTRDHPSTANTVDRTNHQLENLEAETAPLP
UniProt P21836, whole entry, looked up: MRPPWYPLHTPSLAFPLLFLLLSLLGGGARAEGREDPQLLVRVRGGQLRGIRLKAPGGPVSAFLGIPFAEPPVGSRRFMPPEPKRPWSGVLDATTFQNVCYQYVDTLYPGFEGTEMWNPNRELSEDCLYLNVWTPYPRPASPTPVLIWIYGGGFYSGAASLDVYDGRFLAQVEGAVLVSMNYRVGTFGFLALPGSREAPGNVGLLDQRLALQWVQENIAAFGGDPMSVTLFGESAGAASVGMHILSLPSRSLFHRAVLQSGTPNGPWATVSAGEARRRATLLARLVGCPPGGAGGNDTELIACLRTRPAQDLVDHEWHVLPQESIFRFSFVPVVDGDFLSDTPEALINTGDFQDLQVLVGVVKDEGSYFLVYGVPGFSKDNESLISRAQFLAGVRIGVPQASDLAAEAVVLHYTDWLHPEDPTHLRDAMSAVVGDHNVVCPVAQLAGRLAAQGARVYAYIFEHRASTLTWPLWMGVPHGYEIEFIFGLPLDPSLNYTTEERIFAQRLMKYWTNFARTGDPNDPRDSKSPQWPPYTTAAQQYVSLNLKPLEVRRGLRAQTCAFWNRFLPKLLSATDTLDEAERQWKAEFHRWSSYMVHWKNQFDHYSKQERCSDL
UniProt Q9GZQ6, whole entry: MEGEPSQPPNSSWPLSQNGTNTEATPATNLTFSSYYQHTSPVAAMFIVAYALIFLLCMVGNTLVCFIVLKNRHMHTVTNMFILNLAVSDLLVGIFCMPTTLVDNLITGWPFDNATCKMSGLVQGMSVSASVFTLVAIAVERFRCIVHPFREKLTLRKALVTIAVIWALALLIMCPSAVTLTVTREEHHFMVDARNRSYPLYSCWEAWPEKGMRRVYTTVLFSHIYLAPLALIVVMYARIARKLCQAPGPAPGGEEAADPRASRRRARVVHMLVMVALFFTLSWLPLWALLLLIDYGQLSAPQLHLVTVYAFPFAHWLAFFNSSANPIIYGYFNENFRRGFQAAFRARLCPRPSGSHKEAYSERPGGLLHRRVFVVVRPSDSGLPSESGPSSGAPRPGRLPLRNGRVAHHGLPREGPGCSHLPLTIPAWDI
UniProt P41143, whole entry: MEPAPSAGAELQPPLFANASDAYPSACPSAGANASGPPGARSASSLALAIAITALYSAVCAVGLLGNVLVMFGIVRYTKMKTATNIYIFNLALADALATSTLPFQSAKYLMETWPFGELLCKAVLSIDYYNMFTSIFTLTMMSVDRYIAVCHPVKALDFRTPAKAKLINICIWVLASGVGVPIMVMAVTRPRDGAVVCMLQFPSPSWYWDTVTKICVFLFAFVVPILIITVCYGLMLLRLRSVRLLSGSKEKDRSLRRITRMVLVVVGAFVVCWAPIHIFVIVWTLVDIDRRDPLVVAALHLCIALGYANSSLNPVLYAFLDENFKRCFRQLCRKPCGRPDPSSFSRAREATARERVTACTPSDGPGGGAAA
UniProt P41145, whole entry: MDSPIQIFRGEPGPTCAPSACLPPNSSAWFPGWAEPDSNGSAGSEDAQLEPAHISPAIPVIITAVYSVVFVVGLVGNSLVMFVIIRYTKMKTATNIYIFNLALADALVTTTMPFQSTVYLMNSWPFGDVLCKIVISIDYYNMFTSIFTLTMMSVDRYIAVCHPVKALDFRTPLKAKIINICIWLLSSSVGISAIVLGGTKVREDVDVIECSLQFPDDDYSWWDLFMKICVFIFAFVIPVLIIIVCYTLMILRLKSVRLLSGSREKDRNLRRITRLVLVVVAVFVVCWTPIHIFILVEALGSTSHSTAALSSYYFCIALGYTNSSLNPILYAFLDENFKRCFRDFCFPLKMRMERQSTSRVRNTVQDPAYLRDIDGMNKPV
UniProt Q03311, whole entry, looked up: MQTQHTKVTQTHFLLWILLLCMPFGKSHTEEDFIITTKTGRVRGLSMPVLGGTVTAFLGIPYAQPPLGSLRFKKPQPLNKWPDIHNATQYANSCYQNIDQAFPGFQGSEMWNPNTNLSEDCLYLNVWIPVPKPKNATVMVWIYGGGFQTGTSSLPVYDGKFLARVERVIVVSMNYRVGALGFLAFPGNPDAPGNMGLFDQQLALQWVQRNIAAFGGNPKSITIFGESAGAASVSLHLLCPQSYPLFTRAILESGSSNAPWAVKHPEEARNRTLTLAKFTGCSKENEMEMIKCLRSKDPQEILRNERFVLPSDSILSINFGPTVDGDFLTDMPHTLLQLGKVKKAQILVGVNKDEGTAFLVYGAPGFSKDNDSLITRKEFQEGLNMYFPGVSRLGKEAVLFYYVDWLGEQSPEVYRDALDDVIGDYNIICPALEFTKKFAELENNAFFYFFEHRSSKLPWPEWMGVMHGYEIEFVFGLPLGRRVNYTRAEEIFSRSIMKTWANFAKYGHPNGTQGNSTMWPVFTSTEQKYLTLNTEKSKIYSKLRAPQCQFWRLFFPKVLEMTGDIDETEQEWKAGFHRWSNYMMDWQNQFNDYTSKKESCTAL
UniProt Q9GZZ6, 25-450 limits assumed: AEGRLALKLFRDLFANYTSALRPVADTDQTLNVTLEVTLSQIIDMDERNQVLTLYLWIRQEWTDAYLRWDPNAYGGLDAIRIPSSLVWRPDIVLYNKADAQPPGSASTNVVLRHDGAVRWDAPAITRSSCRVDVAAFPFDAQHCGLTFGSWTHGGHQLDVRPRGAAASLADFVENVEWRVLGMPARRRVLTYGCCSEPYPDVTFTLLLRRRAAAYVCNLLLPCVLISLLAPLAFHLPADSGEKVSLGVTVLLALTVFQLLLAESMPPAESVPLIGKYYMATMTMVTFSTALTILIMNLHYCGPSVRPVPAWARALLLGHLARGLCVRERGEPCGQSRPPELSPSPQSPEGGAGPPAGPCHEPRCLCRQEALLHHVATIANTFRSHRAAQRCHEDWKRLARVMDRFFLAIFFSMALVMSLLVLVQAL
UniProt Q9UGM1, 26-479 limits assumed: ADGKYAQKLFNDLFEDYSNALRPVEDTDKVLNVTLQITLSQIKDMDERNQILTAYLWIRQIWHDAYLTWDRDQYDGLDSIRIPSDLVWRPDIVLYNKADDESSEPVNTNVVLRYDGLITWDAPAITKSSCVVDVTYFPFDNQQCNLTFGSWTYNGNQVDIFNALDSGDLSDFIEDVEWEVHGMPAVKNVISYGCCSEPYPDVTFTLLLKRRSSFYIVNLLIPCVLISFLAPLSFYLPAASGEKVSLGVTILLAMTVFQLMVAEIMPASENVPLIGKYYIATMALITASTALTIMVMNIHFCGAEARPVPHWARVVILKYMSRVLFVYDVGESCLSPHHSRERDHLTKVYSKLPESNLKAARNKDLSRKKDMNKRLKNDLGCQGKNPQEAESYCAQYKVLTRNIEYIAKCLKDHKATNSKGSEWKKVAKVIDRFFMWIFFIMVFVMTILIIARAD
UniProt P33535, whole entry: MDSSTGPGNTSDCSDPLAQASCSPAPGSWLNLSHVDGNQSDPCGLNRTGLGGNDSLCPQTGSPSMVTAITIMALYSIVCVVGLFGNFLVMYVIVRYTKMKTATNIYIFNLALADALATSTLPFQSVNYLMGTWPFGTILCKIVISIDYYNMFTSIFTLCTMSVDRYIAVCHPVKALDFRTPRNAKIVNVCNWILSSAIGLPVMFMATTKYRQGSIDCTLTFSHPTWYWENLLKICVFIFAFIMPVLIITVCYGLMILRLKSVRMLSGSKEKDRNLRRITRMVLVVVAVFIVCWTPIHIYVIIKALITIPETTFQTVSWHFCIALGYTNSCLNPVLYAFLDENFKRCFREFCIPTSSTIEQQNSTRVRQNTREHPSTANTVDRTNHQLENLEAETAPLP
UniProt O42275, whole entry, looked up: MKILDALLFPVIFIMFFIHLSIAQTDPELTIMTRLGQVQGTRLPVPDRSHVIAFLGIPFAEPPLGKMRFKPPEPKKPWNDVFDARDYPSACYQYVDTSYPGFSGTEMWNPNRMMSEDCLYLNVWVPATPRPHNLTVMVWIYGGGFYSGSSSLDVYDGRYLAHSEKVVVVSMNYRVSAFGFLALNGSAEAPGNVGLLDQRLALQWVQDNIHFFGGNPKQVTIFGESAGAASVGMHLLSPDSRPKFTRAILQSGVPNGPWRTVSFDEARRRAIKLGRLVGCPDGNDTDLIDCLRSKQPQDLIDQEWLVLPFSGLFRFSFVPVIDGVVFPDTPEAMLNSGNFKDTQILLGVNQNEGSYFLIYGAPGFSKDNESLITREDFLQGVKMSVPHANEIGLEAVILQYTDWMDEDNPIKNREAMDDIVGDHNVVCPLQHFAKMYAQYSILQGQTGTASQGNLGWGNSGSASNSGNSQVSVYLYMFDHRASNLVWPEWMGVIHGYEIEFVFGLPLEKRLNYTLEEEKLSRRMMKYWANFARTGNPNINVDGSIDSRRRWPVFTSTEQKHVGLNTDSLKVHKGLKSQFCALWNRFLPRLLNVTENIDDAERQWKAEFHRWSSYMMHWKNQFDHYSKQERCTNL

Compound = N=C(N)NCCNC(=O)C1(Nc2ccccc2)CCN(Cc2ccccc2)CC1; target = NPFFR1 (Homo sapiens, UniProt Q9GZQ6); how to read = baseline: mu/delta/kappa opioid over NPFF1; endpoint = selectivity ratio; result = ≥ 18 fold
Compound = CN(C)[C@]1(c2ccccc2)CC[C@]2(CC1)OCCc1c3cc(F)ccc3[nH]c12; target = OPRD1 (Homo sapiens, UniProt P41143); test = cAMP, agonist; conditions = human receptor; endpoint = Emax; result = 90.4 ± 2.2%
Compound = Nc1nc2nc(C(=O)NCc3ccccn3)cnc2c(=O)[nH]1; target = Ricin A chain; test = differential scanning fluorimetry; conditions = 500 µM, pH 7.5, 2 µM protein; endpoint = ΔTm; result = 1 °C
Compound = CN(C)c1ccc(C(=O)On2nnc3ccccc32)cc1; target = Replicase polyprotein 1ab, 3C-like proteinase (rep, Severe acute respiratory syndrome-related coronavirus, UniProt P0C6X7); test = covalent acylation of Cys145, ESI-MS; conditions = 2 h, 18 h dialysis; how to read = baseline: untreated protease; endpoint = mass shift; result = 149 Da
Compound = Cc1cc2c(-c3ccco3)cnc(N[C@H]3CCN(C)C[C@@H]3C(=O)NC3CCCCC3)c2[nH]c1=O; target = OPRM1; test = binding, radioligand binding; conditions = 10 µM; endpoint = inhibition; result = 24.3%
Compound = CNC(=O)c1cnc2c(=O)[nH]c(N)nc2n1; target = Ricin A chain; test = differential scanning fluorimetry; conditions = 500 µM, pH 7.5, 2 µM protein; endpoint = ΔTm; result = 0.4 °C
Compound = CO[C@]12CC[C@@]3(C[C@@H]1[C@](C)(O)c1cccc(Cl)c1)[C@H]1Cc4ccc(O)c5c4[C@@]3(CCN1CC1CC1)[C@H]2O5; target = OPRK1 (Homo sapiens, UniProt P41145); test = G-protein activation, agonist; conditions = 10 µM; how to read = baseline: U-69593; endpoint = stimulation; result = 26 ± 2%
Compound = CCOP(=S)(OCC)Oc1cc(C)nc(C(C)C)n1; target = Cholinesterase (Bche, Mus musculus, UniProt Q03311); system = ES1+/+ mice, plasma; conditions = subcutaneous, 50.0 mg/kg, 2.0 h, toxicant challenge; endpoint = inhibition; result = 82 ± 3.1%
Compound = CCCCCc1cc(O)c([C@@H]2C=C(C)CC[C@H]2C(C)C)c(O)c1; target = OPRM1; test = cAMP inhibition reversal, antagonist; conditions = added: fentanyl; how to read = baseline: cannabidiol IC50 over compound IC50; endpoint = IC50 ratio; result = ~86
Compound = CNC(=O)ON=CC(C)(C)SC; target = Acetylcholinesterase (Cavia porcellus, UniProt D3YE96); test = Ellman; endpoint = IC95; result = 509 µM
Compound = C[C@@H]1NC(=O)[C@H](CCCNC(=N)N)NC(=O)[C@H](CCCNC(=N)N)NC(=O)[C@H](Cc2c[nH]cn2)NC(=O)[C@H](CO)NC(=O)[C@H](CCCCN)NC(=O)[C@@H]2CSSC[C@H](NC(=O)CN)C(=O)N[C@@H](CSSC[C@@H](C(N)=O)NC(=O)[C@H](CCCNC(=N)N)NC1=O)C(=O)N[C@@H](CO)C(=O)N[C@@H](Cc1c[nH]cn1)C(=O)N1CCC[C@H]1C(=O)N[C@@H](C)C(=O)N2; target = Neuronal acetylcholine receptor; alpha9/alpha10 (Homo sapiens, UniProt Q9GZZ6+Q9UGM1); test = ion current, antagonist; system = Xenopus oocytes; conditions = 10 µM, 5 min, added: acetylcholine; how to read = baseline: control; endpoint = remaining response; result = 0.7 ± 0.4%
Compound = CCOP(=S)(OCC)Oc1nc(Cl)c(Cl)cc1Cl; target = Ache; test = enzyme activity; system = ES1-/- mice; conditions = transdermal, 100 mg/kg, toxicant challenge; how to read = baseline: baseline; endpoint = time to AChE recovery; result = ≤ 9 days
Compound = O=CN1CC[C@]23c4c5ccc(O)c4O[C@H]2[C@@H](O)C=C[C@H]3[C@H]1C5; target = Oprm1 (Rattus norvegicus, UniProt P33535); how to read = baseline: Ki delta over Ki mu; endpoint = selectivity ratio; result = 49
Compound = CCOP(=O)(OCC)Oc1ccc([N+](=O)[O-])cc1; target = Ache; system = ES1+/+ mice, plasma; conditions = subcutaneous, 0.2 mg/kg, 0.5 h, toxicant challenge; endpoint = inhibition; result = 57.5 ± 1.4%
Compound = CCOP(=O)(OCC)Oc1ccc([N+](=O)[O-])cc1; target = ache (Electrophorus electricus, UniProt O42275); test = irreversible inhibitor, Ellman; conditions = electric eel enzyme; endpoint = bimolecular inhibition rate constant; result = 5000 M⁻¹ s⁻¹
